Measurements collected from several papers.
A part holds a random share of what one study measured. Changes are numbered by the printed parent chain.

Study 1 — target: CCNB3, cyclin fold, Cln2 fusion (human); technique: yeast growth competition, sequencing; sample: yeast; setting: weak parent motif; relative to: not given; direction: higher = stronger binding
Parent: PKN2 docking peptide (human); DSTVTKLDFDLEP; partner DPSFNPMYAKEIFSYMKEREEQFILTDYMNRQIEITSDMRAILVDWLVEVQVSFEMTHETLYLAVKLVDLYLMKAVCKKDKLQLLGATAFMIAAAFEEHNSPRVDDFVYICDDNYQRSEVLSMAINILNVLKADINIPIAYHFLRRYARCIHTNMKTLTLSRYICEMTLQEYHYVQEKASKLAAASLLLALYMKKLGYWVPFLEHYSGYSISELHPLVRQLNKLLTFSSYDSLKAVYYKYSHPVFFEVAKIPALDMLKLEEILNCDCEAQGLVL
`DSAVTKLDFDLEP [T3A]`: “normalised enrichment score” 0.0169.
`DSTVTKLDFDAEP [L11A]`: “normalised enrichment score” 0.0345.
Under “normalised enrichment score”, `ASTVTKLDFDLEP [D1A]` is recorded as 0.135.
For `DSTVTALDFDLEP [K6A]`, “normalised enrichment score” read 0.181.
`DSTVAKLDFDLEP [T5A]` — result for “normalised enrichment score”: -0.0435.
`DSTATKLDFDLEP [V4A]`: “normalised enrichment score” -0.251.

Study 2 — technique: aptamer microarray, sandwich; form: DNA with 2'F-ANA; sample: in vitro; concentration: 200 nM; together with: Cy3 exosite-II aptamer, 400 nM; direction: higher = stronger binding; sequence: GGTTGGTGTGGTTGG
Target: Prothrombin, mature alpha-thrombin (F2, Homo sapiens, UniProt P00734)
Setting: whole 15-mer aptamer, many near background
`2'F-ANA at 2 7 14`: “mean fluorescence intensity” 193 a.u.
Under “mean fluorescence intensity”, `2'F-ANA at 1 5 6 7 11 12 13` is recorded as 68.5 a.u.
`2'F-ANA at 1 3 4 5 6 7 8 9 11 13` — result for “mean fluorescence intensity”: 75.7 a.u.
`2'F-ANA at 2 3 9 13 14` — result for “mean fluorescence intensity”: 437 a.u.
For `2'F-ANA at 1 4 10 12 13 14`, “mean fluorescence intensity” read 48.2 a.u.
`2'F-ANA at 3 4 5 8 12 15` — result for “mean fluorescence intensity”: 213 a.u.
`2'F-ANA at 5 6 7 11 12 14 15`: “mean fluorescence intensity” 47.7 a.u.
Under “mean fluorescence intensity”, `2'F-ANA at 1 2 4 6 7 9 10 11 13 15` is recorded as 51.6 a.u.
Under “mean fluorescence intensity”, `2'F-ANA at 1 2 3 4 7 11 12 13 14` is recorded as 71.6 a.u.
Under “mean fluorescence intensity”, `2'F-ANA at 2 3 5 10 11 12 15` is recorded as 61.6 a.u.
Under “mean fluorescence intensity”, `2'F-ANA at 2 5 11 13` is recorded as 56.2 a.u.
For `2'F-ANA at 2 3 4 8 10 14 15`, “mean fluorescence intensity” read 179 a.u.
Under “mean fluorescence intensity”, `2'F-ANA at 1 2 6 7 8 14 15` is recorded as 60.8 a.u.
`2'F-ANA at 1 3 4 5 7 9 10 11 12 14` — result for “mean fluorescence intensity”: 46.3 a.u.
Under “mean fluorescence intensity”, `2'F-ANA at 1 2 4 7 8 10` is recorded as 50.3 a.u.
`2'F-ANA at 2 4 5 6 8 9 11 13` — result for “mean fluorescence intensity”: 52 a.u.
`2'F-ANA at 1 2 4 6 8 9 10 11 12 13 15` — result for “mean fluorescence intensity”: 55.1 a.u.
For `2'F-ANA at 1 2 4 6 8 10 11 12 13 14`, “mean fluorescence intensity” read 50.6 a.u.
`2'F-ANA at 1 4 7 8 13 14 15` — result for “mean fluorescence intensity”: 117 a.u.
`2'F-ANA at 3 4 9 11 12 13 15` — result for “mean fluorescence intensity”: 637 a.u.
`2'F-ANA at 1 2 3 4 7 9 12` — result for “mean fluorescence intensity”: 374 a.u.

Study 3 — technique: protein binding microarray; form: double-stranded DNA, one strand shown; sample: in vitro; concentration: not given; relative to: not given; direction: higher = stronger binding
Target: Histone acetyltransferase KAT6A, both winged helices, GST fusion (KAT6A, Homo sapiens, UniProt Q92794, residues 1-181)
Setting: 8-mer, flanks averaged, mean of 2 arrays, mostly near background
Construct (chain): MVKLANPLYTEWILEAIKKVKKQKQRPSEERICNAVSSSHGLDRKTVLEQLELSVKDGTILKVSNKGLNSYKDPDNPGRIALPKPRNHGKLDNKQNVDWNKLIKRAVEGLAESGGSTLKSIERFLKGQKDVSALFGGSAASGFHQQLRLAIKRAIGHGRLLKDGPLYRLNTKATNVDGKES
The E-score of `CGGGCCCG` is reported as 0.342.
The E-score of `ACATAGAC` is reported as -0.0926.
With `CTGTTACA` the E-score was 0.14.
`CAATATAA` gave an E-score of -0.000255.
`CAAGGATA` has an E-score of -0.0429.
With `ATCTCATC` the E-score was -0.175.
For `TCCAACGA`, the E-score was -0.161.
`CCTTGGAG` has an E-score of -0.135.
`CATGGTCC` has an E-score of -0.0821.
For `CCGACCGA`, the E-score was 0.164.
`CATGCGAA` has an E-score of 0.0162.
The E-score of `ACGTTATA` is reported as -0.0199.
With `GTAGAGAC` the E-score was -0.121.
The E-score of `GCGGGGAC` is reported as 0.206.
For `CTTATTCA`, the E-score was -0.104.
`GCGGAATA` gave an E-score of 0.203.

Single results of other studies
The fold induction of `PhoQ, residues 284 288 289 292 302 303 SSCCRF` is reported as 9.51 (PhoP, residues 12 14 15 18 19 TPLRH (Escherichia coli, UniProt P23836); Sort-seq, item: YFP reporter; E. coli; PhoQ-PhoP variant library, together with: 10 µM Mg2+; relative to: high Mg2+ state, higher = stronger signaling).

For quick reference, copied from above (study 3):
`CAATATAA` gave an E-score of -0.000255.
With `GTAGAGAC` the E-score was -0.121.
With `CTGTTACA` the E-score was 0.14.
The E-score of `GCGGGGAC` is reported as 0.206.
The E-score of `CGGGCCCG` is reported as 0.342.
`CCTTGGAG` has an E-score of -0.135.
With `ATCTCATC` the E-score was -0.175.
